Earlier results that unrelated publications cite.
Numbered parts are unrelated; values within a part may stem from several laboratories. ± gives the spread as reported.
UniProt Q9ZMY2, sequence (whole entry, looked up): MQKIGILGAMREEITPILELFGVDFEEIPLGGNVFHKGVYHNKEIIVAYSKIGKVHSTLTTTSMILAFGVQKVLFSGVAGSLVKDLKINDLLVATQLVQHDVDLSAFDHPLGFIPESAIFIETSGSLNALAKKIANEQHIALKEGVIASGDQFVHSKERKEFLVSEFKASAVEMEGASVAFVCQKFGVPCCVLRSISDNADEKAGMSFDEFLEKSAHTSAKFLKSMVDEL
UniProt P00811, sequence (whole entry, looked up): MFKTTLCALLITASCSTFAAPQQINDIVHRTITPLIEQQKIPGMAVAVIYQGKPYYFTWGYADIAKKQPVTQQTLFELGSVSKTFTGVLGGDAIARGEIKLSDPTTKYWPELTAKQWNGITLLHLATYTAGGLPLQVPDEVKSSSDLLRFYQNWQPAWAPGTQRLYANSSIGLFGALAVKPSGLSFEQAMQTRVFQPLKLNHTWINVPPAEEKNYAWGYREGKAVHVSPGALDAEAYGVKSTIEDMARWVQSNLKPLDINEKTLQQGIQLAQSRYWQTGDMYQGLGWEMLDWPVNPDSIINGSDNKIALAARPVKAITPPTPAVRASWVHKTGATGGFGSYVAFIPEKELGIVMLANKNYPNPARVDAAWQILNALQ

Set 1
Target: HLA class I histocompatibility antigen, C alpha chain, allele C*04:01 (Homo sapiens, UniProt P10321)
Observed: peptide-MHC binding
Form: peptide
For `VALFSSCPVAY`, the IC50 was > 20 µM.
For `HASHYTIPW`, the IC50 was > 5 µM.
The IC50 of `SLLERGQQLGV` is reported as > 20 µM.
`WPILGFFPM` gave an IC50 of > 5 µM.
With `TEAEKWPFF` the IC50 was 1.5 µM.
For `SAYYLDIGF`, the IC50 was > 5 µM.
`RVRWRNYAL` has an IC50 of > 5 µM.
The IC50 of `RPPYSSYGY` is reported as > 20 µM.
`MTDVDLNYY` has an IC50 of 20 µM.
For `RRFNRTKPM`, the IC50 was > 5 µM.
The IC50 of `RRRPVTRPL` is reported as > 5 µM.
`YIDISDVKV` has an IC50 of 20 µM.
With `YMMDDLEL` the IC50 was > 20 µM.
`YAYNSSLLY` has an IC50 of 20 µM.
With `TYLQSLASL` the IC50 was > 5 µM.
For `YFDPANGKF`, the IC50 was 0.00374 µM.
`LMMNGTSAM` has an IC50 of 2.09 µM.
The IC50 of `RYRQVLSPL` is reported as > 5 µM.
With `YMREVGAAL` the IC50 was > 5 µM.
The IC50 of `RENHTEGLL` is reported as > 5 µM.
For `AENQLFHST`, the IC50 was > 5 µM.
For `KVFPYALINK`, the IC50 was > 5 µM.
For `TSASFTDLY`, the IC50 was > 5 µM.
The IC50 of `RLPAYAPLL` is reported as 0.294 µM.
`YSLEYFQF` has an IC50 of > 20 µM.

Single results of other studies
The MTD of Nc1cccc2c1C(=O)N(C1CCC(=O)NC1=O)C2=O (stereo not drawn) is reported as 2 mg (human, relapsed/refractory multiple myeloma; continuous dosing).
CC1(C)CCC(c2ccc(Cl)cc2)=C(CN2CCN(c3ccc(C(=O)NS(=O)(=O)c4ccc(N[C@H](CCN5CCOCC5)CSc5ccccc5)c(S(=O)(=O)C(F)(F)F)c4)cc3)CC2)C1 — result for “maximum tolerated dose”: 325 mg (relapsed SCLC patients; once daily).
O=S1OCC2C(CO1)C1(Cl)C(Cl)=C(Cl)C2(Cl)C1(Cl)Cl (stereo not drawn): MDR1 inhibition “inhibited” (MDR1, human; B16/F10 overexpressing human MDR1; micromolar).
O=C(O)c1sccc1S(=O)(=O)Nc1cccnc1 has a Ki of 120 µM (Beta-lactamase (ampC, Escherichia coli K-12, UniProt P00811); inhibitor).
The LFER slope of CN(C)C(N)=NCCC[C@H](N)C(=O)O is reported as -0.04 (histone reader proteins; CH3-π interaction).
The Ki of CSC[C@H]1CN(Cc2c[nH]c3c(N)ncnc23)C[C@@H]1O is reported as 8.9e-05 ± 1.9e-05 µM (Aminodeoxyfutalosine nucleosidase (Helicobacter pylori, UniProt Q9ZMY2); tight complex after isomerization).
With CCc1cc(O)cc2c(/C=N/NC(=N)NCCc3ccc(Cl)cc3)c[nH]c12 the EC50 was 0.002 µM (RXFP4; agonist).
For CC[C@H](C)C(=O)O[C@H]1C[C@H](O)C=C2C=C[C@H](C)[C@H](CC[C@@H](O)C[C@@H](O)CC(=O)O)[C@H]21, “share of hepatic uptake clearance” read 4% (OATP1B3).
The CL of O=C1Nc2ccc(Cl)cc2[C@@](C#CC2CC2)(C(F)(F)F)O1 is reported as 2.5 to 3.5 L/h (human).
For CCOC(=O)c1ccc(OC(=O)CCCCCNC(=N)N)cc1, “IC50, Ki or Kd” read 1.6 µM (plasmin; enzyme activity, inhibitor).
For Cc1sc2c(c1C)C(c1ccc(Cl)cc1)=N[C@@H](CC(=O)OC(C)(C)C)c1nnc(C)n1-2, the clearance was 39.2 mL/min/kg (mouse; intravenous, 5 mg/kg).
The EC50 of CCCC(C)(C)c1ccc2c(c1)OC(C)(C)[C@@H]1CC=C(C)C[C@@H]21 is reported as 0.018 µM (cannabinoid receptor CB2; agonist).
C[C@]12CC[C@H]3[C@@H](CCC4=CC(=O)CC[C@@]43CO)[C@@H]1CCC2=O gave a Kd of 1.5 µM (aromatase (CYP19A1) human).
Under “maximum tolerated dose”, COc1cc2c(Oc3ccc4[nH]c(C)cc4c3F)ccnc2cc1OCC1(N)CC1 is recorded as 12 mg/day (adult patients, refractory solid tumours).
Under “maximum tolerated dose”, CNC(=O)c1cccc(-c2ccc3c(N4CCOC[C@@H]4C)nc(N4CCOC[C@@H]4C)nc3n2)c1 is recorded as 50 mg (human; twice daily).
CC1(C)CCC(CN2CCN(c3ccc(C(=O)NS(=O)(=O)c4ccc(NCC5CCOCC5)c([N+](=O)[O-])c4)c(Oc4cnc5[nH]ccc5c4)c3)CC2)=C(c2ccc(Cl)cc2)C1 gave an AUC of 7100 ng·h/mL (human; oral, 100 mg single dose).
For COC(=O)CCOC(=O)c1cncn1[C@H](C)c1ccccc1, the metabolic half-life was 24.6 s (rat blood).
For CCCCCCC(C)(C)c1cc(OC)c(C2C=C(CO)C3CC2C3(C)C)c(OC)c1 (stereo not drawn), the EC50 was > 1 µM (cannabinoid receptor CB1; agonist).
CC(NC(C)(C)C)C(=O)c1cccc(Cl)c1 (stereo not drawn) has an IC50 of 17.8 µM (nicotinic acetylcholine receptor α4β2; antagonist).
With Cc1cccc(-c2[nH]c(CNc3ccccc3F)nc2-c2ccc3ncnn3c2)n1 the NOAEL was 30 mg/kg/day (Beagle dog; 28 days, GLP study, highest dose tested).
With COCCc1ccc(OCC(O)CNC(C)C)cc1 (stereo not drawn) the CL was 6 to 10 L/h (human).
NS(=O)(=O)OC[C@@H]1C[C@@H](n2ccc3c(N[C@H]4CCc5ccccc54)ncnc32)C[C@@H]1O gave an MTD of 20 mg/m² (human paediatric relapsed/refractory AML; added: azacitidine and fludarabine).
With C[C@]12CC[C@H]3[C@@H](CCC4=CC(=O)CC[C@@]43C=O)[C@@H]1CCC2=O the Kd was 3.6 µM (aromatase (CYP19A1) human).
With CC(C)C[C@H](NC(=O)[C@H](Cc1ccccc1)NC(=O)c1cnccn1)B(O)O the IC50 was 8.7 µM (DPP7; enzyme activity, inhibitor, MS-based activity-based protein profiling).
For C[C@H](c1ccccc1)n1cncc1C(=O)OCCC(=O)O, the blood concentration was 480 ± 110 µM (rat; MOC-etomidate infusion, 4 h after infusion end).
CCCCCCCCCCCCCCCCCCOCC(COP(=O)([O-])OCC[N+](C)(C)C)OC (stereo not drawn) gave an IC50 of 10 µM (phosphoinositide-specific phospholipase C).

For quick reference, copied from above (set 1):
`YSLEYFQF` has an IC50 of > 20 µM.
For `TSASFTDLY`, the IC50 was > 5 µM.
For `YFDPANGKF`, the IC50 was 0.00374 µM.
